Published values pooled from the literature.
Every numbered part comes from another study and shows a few of its results, in no order.

Series 1
Target: RNA binding protein fox-1 homolog 2, RRM domain, GST-SBP tag (RBFOX2, Homo sapiens, UniProt O43251-10, residues 100-194)
Method: RNA Bind-n-Seq
Form: RNA
Matrix: in vitro
Tested at: 365 nM
Setting: natural RNA segment, single round, ends assumed
Baseline: no-protein control
Reading: higher = stronger binding
Residues (chain): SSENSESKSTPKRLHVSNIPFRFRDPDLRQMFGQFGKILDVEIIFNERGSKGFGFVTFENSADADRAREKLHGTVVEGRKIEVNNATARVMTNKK
Strand | RBNS enrichment (R)
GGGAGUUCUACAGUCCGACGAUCUCCUUGAGAGCCCCGCCCUGCGCCCGCGUGGUGCCUGCCUGCCAGGCCUGGGGCGUGCAGCCGGGGAGGCGGGUGGGGUGAGGCAGGCAGGCAGCCAGCCCCCUGCAGUGUGGAAUUCUCGGGUGCCAA | 0.747
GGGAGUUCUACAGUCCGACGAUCCCCCAACAUGGAUGUGUUGCCCCUCCUCCGCAUGCCAACGCAGUUCAUGUACAAGGCCCCUCUGCAACUGGAGAGAAAAUUAAUUCCUAUCCCGUGAGUGGAUUGUGAGAUGGAAUUCUCGGGUGCCAA | 4.03
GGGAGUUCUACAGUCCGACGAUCACGGGAGCUUGGAGAACGUUUUCUAGAAAAGGGUUAGCUUCCUGUUGGCAUGAAAUUUUCCAAGCAAACCUCAUUAAACAUCUGUUGUUUGUUAAAGAUGUUCCACUGAAUGGAAUUCUCGGGUGCCAA | 0.801
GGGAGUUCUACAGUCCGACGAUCUCUAUCCCCUCUUCUUGUAAAGCACAAGCCGGGGGCCGUGAGUGUAUUACAACCCAACGGCGGCCCAUCUUCAACGGAAAGCGAGAACCAUUUUGGAAACUGUCAUGUAAUGGAAUUCUCGGGUGCCAA | 0.38
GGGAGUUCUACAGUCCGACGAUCGGGCUGUAGGGGUUGGAUUAGCAUGGGCUCAAGCUACACCAGCUCUGAAGAGGAGGAGCAGGAGGAGCCUGCCCACUGGGCAUCGUGCCAUCCCCAUCAGGACCUCAGACUGGAAUUCUCGGGUGCCAA | 0.557
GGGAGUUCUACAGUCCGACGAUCCCACAAAGCUAAAAGACUGCGCCCCAUUCUGAAGAAGGCACAAGUACAUGGGAGAGUCCUGCCUUACUUCUCCUGGACUGGCUUCCUCUUUGAGAAAAUGCACAAAGCUCUGGAAUUCUCGGGUGCCAA | 0.684
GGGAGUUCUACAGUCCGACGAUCAUUAGCAGAACGACAGCCCCUUCCUCCUCCUCCCUCCUUCCCAUCCCUACUCAUUAGCUCCCUGCUCCUGGGAUGCUUCCCAAGCAGCCCAGGCCUCUAGCCUCCAUGGCUGGAAUUCUCGGGUGCCAA | 0.538
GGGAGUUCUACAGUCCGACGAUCAUUUUGGAUUUGGAACUUGGCUUUGUUUUUCAAUAGUGACAAGAAUGGUUCAGUUCUAGGAAUGUUCUGGAAGAUGCUGUUAAUUUUACUUUAAAAUGAGAAUCUGGUGUUGGAAUUCUCGGGUGCCAA | 0.637
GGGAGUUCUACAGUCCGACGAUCCCCCAGGAGGACAGAUCAUCAUCCACGGCUCACCUGUGCCUGGGCACAUCUUGGAGAGCUUGUGGACAUACUAUCUUUCAAUGAAGUAUAUUCAAAGGAUAUUUAUAUUGUGGAAUUCUCGGGUGCCAA | 0.238

Series 2
Target: Ras GTPase-activating protein-binding protein 1, full length (G3BP1, Homo sapiens, UniProt Q13283)
Sequence of UniProt Q13283 (whole entry, looked up): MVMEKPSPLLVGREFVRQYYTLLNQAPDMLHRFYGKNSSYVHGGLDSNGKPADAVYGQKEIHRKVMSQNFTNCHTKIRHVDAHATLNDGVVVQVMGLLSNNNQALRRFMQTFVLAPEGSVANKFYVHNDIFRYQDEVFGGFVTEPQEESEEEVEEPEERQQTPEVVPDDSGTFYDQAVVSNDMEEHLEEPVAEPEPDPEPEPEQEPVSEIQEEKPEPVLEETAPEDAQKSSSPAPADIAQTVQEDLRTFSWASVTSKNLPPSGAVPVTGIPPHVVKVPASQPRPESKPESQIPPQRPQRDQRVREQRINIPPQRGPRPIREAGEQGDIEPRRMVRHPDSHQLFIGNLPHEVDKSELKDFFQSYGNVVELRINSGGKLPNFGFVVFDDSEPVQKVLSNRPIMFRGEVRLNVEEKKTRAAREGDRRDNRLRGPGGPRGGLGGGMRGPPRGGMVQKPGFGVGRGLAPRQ
Method: RNA Bind-n-Seq
Form: RNA
Matrix: in vitro
Tested at: 200 nM
Setting: whole 134-nt RNA, ends assumed
Added: 150 mM KCl
Baseline: input library
Reading: higher = stronger binding
Strand | log2 enrichment
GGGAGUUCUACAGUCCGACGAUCUCCUGUGCUACACAUCGUAUGUACCGAAUCGGGAAAAAAAGGGAAAAAAAGGGAAAGGGAAAGUAUUAUGUUACGCCGUUCGGAUCUGCAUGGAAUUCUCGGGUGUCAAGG | -0.313
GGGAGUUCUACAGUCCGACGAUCCCUCAAGUCCUGUGCUACACAUCGUAUGUACCGAAUCGGGAAGGAAGGAAGGAAAGUAUUAUGUUACGCCGUUCGGAUCUGCACUUCCAGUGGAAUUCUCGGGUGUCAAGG | -0.0422
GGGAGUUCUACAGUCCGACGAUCCUGUGCUACACAUCGUAUGUACCGAAUCGGGGCCCCCCGGGGCCCCCCGGGGCCCCCCGGGGAAAGUAUUAUGUUACGCCGUUCGGAUCUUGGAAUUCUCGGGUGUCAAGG | -1.55
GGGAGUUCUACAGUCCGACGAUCAAGUCCUGUGCUACACAUCGUAUGUACCGAAUCGGCCCGGGGCCCGGGGCCCGGGGAAAGUAUUAUGUUACGCCGUUCGGAUCUGCACUUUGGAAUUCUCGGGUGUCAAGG | -1.09
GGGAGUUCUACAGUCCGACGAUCUUUGAGGUCAAACGCCGCGGGGAACUGCAGCUGAUUAAGAUCUUCCAAUCCUCGGUGUUUGAGGCCUUCCUCAAGGGCAGCACGCUGGAAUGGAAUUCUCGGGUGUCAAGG | -1.86
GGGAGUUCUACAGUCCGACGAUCCACAGACAACACGCACCCACACAGACACAGAGGGAAGGGGUUGAAAUGGGGACAGGGUGCACAGCAGGGCGGGGUAGGACCCCAGCCCCUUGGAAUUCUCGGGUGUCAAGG | 1.25
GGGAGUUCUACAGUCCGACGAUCACCAUGCAGGUGGGCAUCUUUGGGAAGUGGGGCAAGGGGGGGAUAGGGAGGGGGGUAACAAAUUGGGAACAGGUGGUCCCAGGUCGUUUCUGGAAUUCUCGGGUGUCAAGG | 1.1
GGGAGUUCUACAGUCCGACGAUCUGUUCUGCAGAGGGGCGGUGUCAUUACUGAUGAAGAGGAAACCUCUAAGAAGAUAGCUGACCAGUUGGACAACAUUGUGGACAUGCGCGAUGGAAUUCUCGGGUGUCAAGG | -1.58
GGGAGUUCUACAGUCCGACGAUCUGGCCCUCAAGCACUGCACAGAGGCCCUUCUUUCUCUUGGCCAGUACUCCAUGGCAGACUUCACAGGGCCUUGUCCAUUGGAAAUAGAACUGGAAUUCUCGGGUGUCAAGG | -1.78
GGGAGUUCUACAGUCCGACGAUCUAAGAAGGAAAUUGAGAGGAGAAAAACUGGAAAAGAAAUGUUGGAUUAUAAAAGAAAACAAGAAGAAGAAUUAACAAAAAGAAUGCUGGAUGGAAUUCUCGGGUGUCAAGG | -0.792

Series 3
Target: Probable WRKY transcription factor 11, DNA-binding domain (WRKY11, Arabidopsis thaliana, UniProt Q9SV15, residues 228-325)
Method: DNA-protein interaction ELISA
Form: double-stranded DNA, one strand shown
Matrix: in vitro, bacterial lysate
Tested at: not given
Setting: whole dsDNA probe, crude lysate protein
Baseline: highest signal in screen
Reading: higher = stronger binding
Residues (chain): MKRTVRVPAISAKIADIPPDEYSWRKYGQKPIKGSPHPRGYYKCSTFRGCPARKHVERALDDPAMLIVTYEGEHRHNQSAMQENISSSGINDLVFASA
Strand | relative absorbance
AAAAAAGTGCGTTCACGCTTGTATCTAAAA | 16.4 % of maximum
AAAAAATATATTTTCAGCTTTAATCTAAAA | 17.6 % of maximum
AAAAAATGGATCTTTACTTTAGGCCAAAAA | 17.9 % of maximum
AAAAAATGTGGTTACGGCCTCGATGAAAAA | 14.1 % of maximum
AAAAAAACTTTCTATTCTGGATAAGTAAAA | 15.3 % of maximum
AAAAAATTCGTATCTGTACCCTATGCAAAA | 17 % of maximum
AAAAAATGCAGACCTTCAGCTGGGTAAAAA | 16.4 % of maximum
AAAAAATGGGGCTCTGGCCCACCGTAAAAA | 13.5 % of maximum
AAAAAAGCTTCGCGCCAGCGGGAAAA | 18.7 % of maximum
AAAAAATCGGGCCCCGTTAGCACTCTAAAA | 16.7 % of maximum
AAAAAATGAATCAATTTTTGGGCTTTAAAA | 12.7 % of maximum
AAAAAACCGTATGTATATCTATATGTAAAA | 9.8 % of maximum
AAAAAATTTCTCCTTCTTTGTTCTTCAAAA | 16.1 % of maximum

Series 4
Target: Histone acetyltransferase KAT6A, both winged helices, GST fusion (KAT6A, Homo sapiens, UniProt Q92794, residues 1-181)
Method: protein binding microarray
Form: double-stranded DNA, one strand shown
Matrix: in vitro
Tested at: not given
Setting: 8-mer, flanks averaged, mean of 2 arrays, mostly near background
Baseline: not given
Reading: higher = stronger binding
Construct (chain): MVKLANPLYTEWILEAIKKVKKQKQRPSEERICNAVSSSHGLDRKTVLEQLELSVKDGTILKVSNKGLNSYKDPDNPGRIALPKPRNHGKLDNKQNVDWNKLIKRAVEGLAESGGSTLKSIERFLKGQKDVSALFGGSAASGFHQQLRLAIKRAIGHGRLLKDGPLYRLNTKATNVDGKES
Strand | E-score
TCAGCTGA | -0.171
ATCGAGAA | -0.098
GGGCCCAC | -0.0556
AGAGTAAC | -0.0267
CGATACAG | -0.0555
ACACCGCC | 0.106
AGCCTTAG | -0.237
GAGATACC | -0.065
CAATGCGC | 0.329
ACTTCCGC | 0.21
CAAAACGC | 0.181
AGTCGCGG | 0.257
CCTACATC | -0.0775
AAGCCATG | -0.285
TCTTCAAA | -0.174
ACCGGCAA | 0.24
GAGCAAAA | -0.23
AGATGATG | -0.0802
GGTAGGGA | -0.0951
CCAATACA | -0.0881
CTAGAGCC | -0.00654
AAGCTTGA | -0.102
ACCTCGTG | 0.0275
CTATCGCA | 0.00067
AGTTGTCA | -0.0607
